Measured values from different studies.
Each line is one published result; not all experiments were run side by side.

`CC(C)(C(=O)N1CCOc2c(C#N)cncc2C1)C(F)F`: “subjects with adverse event” 12.5% (refers to: infections and infestations; human; oral, 20 mg once daily, 14 days, multiple ascending dose).
`Cc1cc(Nc2cc3ncccc3c(N[C@@H]3C[C@H]4CC[C@@H](C3)N4CCC#N)n2)n[nH]1` — result for “subjects with contact dermatitis”: 0% (healthy human; oral, 1000 mg single dose, 2 weeks).
For `C[C@@H](Oc1ccc(S(C)(=O)=O)cc1C(=O)N1C[C@@H]2C[C@]2(c2cc(C(F)(F)F)on2)C1)C(F)(F)F`, “subjects with eye disorders” read 16.7% (human; oral plus intravenous microtracer, dose not given).
Under “subjects with adverse event”, `CNC(=O)c1ccc(-c2cnc3ncc(Cc4ccc5ncccc5c4)n3n2)cc1F` is recorded as 7.7% (healthy human subjects; oral, 400 mg, Nausea, all grades, all causality, added: rifampicin 600 mg/day).
For `C[C@H]1CN(C(=O)CC#N)[C@]12CCN(c1ncnc3[nH]ccc13)C2`, “subjects with Dizziness” read 0% (healthy human; oral, 12 mg single).
For `Cc1cc(-c2nccc3c2ccn3CC(=O)Nc2ccc(-c3cnccn3)cn2)ccn1`, “subjects with grade 1 TEAE” read 16.7% (human; SAD part, single 20 mg dose).
`CN1CCN(c2cccc3c2CCN(C(=O)/C=C/c2c(-n4cnnn4)ccc(Cl)c2F)[C@@H]3C(=O)Nc2ccc(C(=O)O)cc2)C(=O)C1`: “subjects with treatment-related adverse event” 0% (healthy human subjects; intravenous infusion, 25 mg/h, 2 h).
Under “subjects with grade 3 CPK elevation”, `CC(C)n1c(Nc2cccnc2)nc2cnc(Nc3ccc(N4CCN(C)CC4)cc3)nc21` is recorded as 4.8% (healthy male humans; oral, dose not given, drug interaction study, all arms).

A few entries again:
`CC(C)(C(=O)N1CCOc2c(C#N)cncc2C1)C(F)F`: “subjects with adverse event” 12.5% (refers to: infections and infestations; human; oral, 20 mg once daily, 14 days, multiple ascending dose).
